# Measurements pooled from the literature.
# Parts stem from different laboratories: compare values within a part only.

# Set 1
# Target: Sal-like protein 4, full length isoform B (SALL4, Homo sapiens, UniProt Q9UJQ4-2, residues 1-616)
# Method: universal PBM
# Form: double-stranded DNA, one strand shown
# Medium: in vitro
# Tested at: not given
# Setting: 8-mer, flanks averaged, mean of replicates
# Direction: higher = stronger binding
# Construct (chain): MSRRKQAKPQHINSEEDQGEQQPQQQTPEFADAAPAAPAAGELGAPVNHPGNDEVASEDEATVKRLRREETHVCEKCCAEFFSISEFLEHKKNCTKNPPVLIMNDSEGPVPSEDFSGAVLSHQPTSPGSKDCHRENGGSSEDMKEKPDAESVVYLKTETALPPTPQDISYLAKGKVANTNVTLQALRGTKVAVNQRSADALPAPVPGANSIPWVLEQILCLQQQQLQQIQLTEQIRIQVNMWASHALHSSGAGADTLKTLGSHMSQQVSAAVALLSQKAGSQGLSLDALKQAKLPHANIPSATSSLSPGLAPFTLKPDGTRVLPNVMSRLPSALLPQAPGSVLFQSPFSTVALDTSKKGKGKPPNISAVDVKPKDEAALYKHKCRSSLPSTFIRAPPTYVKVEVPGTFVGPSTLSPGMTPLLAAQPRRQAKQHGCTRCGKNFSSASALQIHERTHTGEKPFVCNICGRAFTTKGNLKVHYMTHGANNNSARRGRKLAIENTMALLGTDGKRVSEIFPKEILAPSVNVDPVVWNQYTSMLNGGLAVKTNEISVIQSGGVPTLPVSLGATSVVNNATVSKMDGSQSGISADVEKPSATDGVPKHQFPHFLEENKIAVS
Oligonucleotide,E-score
CAGTACGA,0.0848
AGGGAACT,-0.294
GACAGCGA,-0.209
CGCCTTGA,-0.217
TGAAATAA,0.325
TGGCCACA,-0.164

# Set 2
# Target: RNA binding protein fox-1 homolog 2, RRM domain, GST-SBP tag (RBFOX2, Homo sapiens, UniProt O43251-10, residues 100-194)
# Method: RNA Bind-n-Seq
# Form: RNA
# Medium: in vitro
# Tested at: 365 nM
# Setting: natural RNA segment, single round, ends assumed
# Reference: no-protein control
# Direction: higher = stronger binding
# All sequences stand within: GGGAGUUCUACAGUCCGACGAUC … UGGAAUUCUCGGGUGCCAA
# Construct (chain): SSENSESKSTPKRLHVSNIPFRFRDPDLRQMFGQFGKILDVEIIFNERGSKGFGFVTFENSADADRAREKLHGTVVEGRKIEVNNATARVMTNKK
Oligonucleotide,RBNS enrichment (R)
GGCUCUGUGGGCUGUGCUCAGUCUGUGGCCCAGCACCCCUGCCCUAGAAAGGGGCAACACAGGGUACUACUUGAACUUUCCUAUCACAGCUCCCAUGCCACAGAGGGACA,0.309
CGGGGCCUUCAAUUUACGUUCUUUACACUACGGGGACUGGGGUCGUCUUUGCCCACGUCCCGACAACUUGUUCCCUGACCCCCUCAGGGAUGGCCCCAAACUGUCCCUGC,0.37
CUGCACUGCCCUAGCAGAGGUUCUCUCCCCUGCCGCUGAGAGGGCCUCUCCCCUGCAGCAAACGUUUGCCUGGGCAUUGAGGCAUUUCCAUACAUCUUCUGAAAACUAGG,0.561
AACAUGUUUCCAGCAAGUAGAUGCCCCUGUGUGUGUUUUCCCUUGCCUUGUUUCCUGCCUUAUAUCUUGUAUUUCGACUUAUUACAGAGUUGAGGGUUCUUGCUUAAUUU,0.948
UUUCAACACCUGGCCCUUGCUCUCCUGCCCGUGCCAGGACUCCCUAACUCAGGGAGGGAGGGGAGGUCCUUAGCUGGGGGAAAGGAGGCGAGGGUCCUUACUGCUGUGUA,0.533
UUCUUUUGAGCUUAGUCAGCUGUACCUUUUCAAUUAGUUCUUUUUCAACCAAUGUGUCACUAAAAGUUCCAUCAAAGCUUUAUCAGUUCAAGUUUCUUGCUUUUCAUAAU,0.824
AGUGACUGUGGUCUCAGUGCUGGGAGCCCAGGAGGAACCGUCAUGCCUUACCUCCUUCUAAUGGGUAAAGGGGCUUUCUUAUCAAGCAUGUCUGACAUCCCUGGAGAGGC,2.53

# Set 3
# Target: Interferon regulatory factor 7, full length, phosphomimetic (IRF7, Homo sapiens, UniProt Q92985, residues 1-503, S471D/S472D/S475D/S476D/S477D/S483D/S484D/S487D)
# Method: protein-binding microarray
# Form: double-stranded DNA, one strand shown
# Medium: in vitro
# Tested at: 2200 nM top
# Setting: 60-bp whole probe
# With: salmon DNA 0.4 mg/ml
# Reference: random background probes
# Direction: higher = stronger binding
# All sequences stand within: GCCTAGCAC … GTCTTGATTCGCTTGACGCTGCTG
# Construct (chain): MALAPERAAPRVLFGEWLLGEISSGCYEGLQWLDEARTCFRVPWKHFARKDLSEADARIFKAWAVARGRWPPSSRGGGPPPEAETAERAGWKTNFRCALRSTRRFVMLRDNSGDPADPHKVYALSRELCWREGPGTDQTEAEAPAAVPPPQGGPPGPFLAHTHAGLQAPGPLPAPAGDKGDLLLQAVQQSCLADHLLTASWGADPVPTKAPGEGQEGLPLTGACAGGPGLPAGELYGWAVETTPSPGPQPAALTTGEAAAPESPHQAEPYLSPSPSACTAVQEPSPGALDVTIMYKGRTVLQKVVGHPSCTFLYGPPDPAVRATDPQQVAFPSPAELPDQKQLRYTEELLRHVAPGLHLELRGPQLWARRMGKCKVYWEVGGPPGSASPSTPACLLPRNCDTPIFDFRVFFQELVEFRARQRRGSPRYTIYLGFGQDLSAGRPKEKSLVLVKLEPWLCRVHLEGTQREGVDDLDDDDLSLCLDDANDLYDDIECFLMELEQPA
Oligonucleotide,fitted relative affinity [z-score]
TTAGGTTTCGACTTTCGGGTAGTGCTA,9.42
TCCTATATCTGAACCGCAGAGTGCTAG,0.965
GACGGTTTCGACTATCCGGACGTGCTA,3.8
TTAGGTATCGGGGTTCGGTTAGTGCTA,0.524
TTAGGTTTCGACTTTAGGTTAGTGCTA,5.01
GACGGACTGCTTCTCCTGAGGTGCTAG,-0.000889

# Single results of other studies
Molecule,target,assay,system,setting,scale,measurement,result
"PhoQ, residues 284 288 289 292 302 303 SMYGEC","PhoP, residues 12 14 15 18 19 SEGLL (Escherichia coli, UniProt P23836)","Sort-seq, item: YFP reporter",E. coli,"PhoQ-PhoP variant library, with: 10 µM Mg2+","reference: high Mg2+ state, higher = stronger signaling",fold induction,15.5

# Repeated from above (set 1):
Oligonucleotide,E-score
CAGTACGA,0.0848
AGGGAACT,-0.294
